Measurements pooled from the literature.
Compare with care: the assays were run in different laboratories. Numbers after ± are the reported error.

SMILES | test | test system | conditions | how to read | quantity | value
COc1cccc(OC)c1-c1cc(C(=O)NC2(C(=O)O)C3CC4CC(C3)CC2C4)nn1-c1ccc(C(=O)N(C)CCOCCOCCN(C)C(=O)[C@H](CCCCNC(=O)[C@H](CC(C)C)NC(=O)C2OC2C(=O)O)NC(=O)CN2CCN(CC(=O)[O-])CCN(CC(=O)[O-])CCN(CC(=O)[O-])CC2)cc1C(C)C.[177Lu+3] (mixture of isomers) |  | mouse, HT-29 xenograft, heart | 4 h post injection |  | tissue uptake | 1.6 %ID/g
O=C(O)CCCOc1ccc([18F])cc1-c1cc(-c2ccccc2C(F)(F)F)n(-c2ccccc2)n1 |  | mouse, small intestine | intravenous, dose not given, 15 min |  | tissue uptake | 3.11 ± 0.65 %ID/g
COC1CN([C@H]2CC[C@H]([C@@]3(C)Oc4c(Cl)cc(C(=O)NCc5c(SC)cc(C)[nH]c5=O)c(C)c4O3)CC2)C1 | RNA-seq, refers to: NLRP6 | human, whole blood | dose not given, 24 h | reference: pretreatment baseline | log2 fold change | 1.32
CCCC[C@H](NC(=O)CNC(=O)CNC(=O)[C@H](CCCCNC(=O)[C@H](CC(=O)O)NC(=O)C(C)c1ccc(CC(C)C)cc1)NC(=O)CN1CCN(CC(=O)O)CCN(CC(=O)O)CCN(CC(=O)O)CC1)C(=O)N[C@H]1CC(=O)NCCCC[C@@H](C(N)=O)NC(=O)[C@H](Cc2c[nH]c3ccccc23)NC(=O)[C@H](CCCNC(=N)N)NC(=O)[C@@H](Cc2ccccc2)NC(=O)[C@H](Cc2c[nH]cn2)NC1=O (some centres unmarked) [lutetium-177 labelled] |  | C57 mouse, liver | intravenous, 2 h, added: 10 µg NDP-MSH co-injection |  | tissue uptake | 2.13 ± 0.73 %ID/g
CN(CCCO)Cc1ccc(-c2noc(-c3ccc(OCC[18F])c(C(F)(F)F)c3)n2)cc1F |  | Sprague-Dawley rats, male, pancreas | 5 min post-injection |  | tissue uptake | 1.68 ± 0.14 %ID/g
[123I]c1ccc2nc(-c3ccc(-n4ccnn4)nc3)cn2c1 |  | male Wistar rat, large intestine | intravenous, 4 MBq, 5 min |  | tissue uptake | 0.235 ± 0.049 %ID/g
COc1cccc(OC)c1-c1cc(C(=O)NC2(C(=O)O)C3CC4CC(C3)CC2C4)nn1-c1ccc(C(=O)NCCNC(=O)[C@H](CCCCNC(=O)[C@H](CC(C)C)NC(=O)C2OC2C(=O)O)NC(=O)CN2CCN(CC(=O)[O-])CCN(CC(=O)[O-])CCN(CC(=O)[O-])CC2)cc1C(C)C.[177Lu+3] (mixture of isomers) |  | mouse, HT-29 xenograft, brain | 72 h post injection |  | tissue uptake | 0.008 %ID/g
O=C(CN1CCN(CC(=O)NCc2ncccc2O)CCN(CC(=O)NCc2ncccc2O)CCN(CC(=O)NCc2ncccc2O)CC1)NCc1ncccc1O.[177Lu+3] |  | Sprague-Dawley rat, muscle | intravenous (tail vein), dose not given, 2 h |  | tissue uptake | 0.013 ± 0.006 % injected dose/g
CCCC[C@H](NC(=O)COCCOCCNC(=O)CN1CCN(CC(=O)O)CCN(CC(=O)O)CC1)C(=O)N[C@H]1CC(=O)NCCCC[C@@H](C(N)=O)NC(=O)[C@H](Cc2c[nH]c3ccccc23)NC(=O)[C@H](CCCNC(=N)N)NC(=O)[C@@H](Cc2ccccc2)NC(=O)[C@H](Cc2c[nH]cn2)NC1=O [fluorine-18 labelled] |  | C57 mice B16-F10 melanoma, bone | intravenous, 0.37 MBq, 0.5 h |  | tissue uptake | 4.15 ± 0.67 %ID/g
CC(C)Cc1ccc(C(C)C(=O)N[C@@H](CCCCNC(=O)CCOCCOCCOCCOCCOCCOCCNC(=O)CN2CCN(CC(=O)[O-])CCN(CC(=O)[O-])CCN(CC(=O)[O-])CC2)C(=O)Nc2cccc3c(C(=O)NCC(=O)N4CC(F)(F)C[C@H]4C#N)ccnc23)cc1.[177Lu+3] (some centres unmarked) |  | mouse, U-87 MG tumour xenograft, spleen | 1 h |  | tissue uptake | 2.57 ± 0.56 %ID/g
COc1cccc(OC)c1-c1cc(C(=O)NC2(C(=O)O)C3CC4CC(C3)CC2C4)nn1-c1ccc(C(=O)N(C)CCOCCN(C)C(=O)[C@H](CCCCNC(=O)[C@H](CC(C)C)NC(=O)C2OC2C(=O)O)NC(=O)CN2CCN(CC(=O)[O-])CCN(CC(=O)[O-])CCN(CC(=O)[O-])CC2)cc1C(C)C.[177Lu+3] (mixture of isomers) |  | mouse, HT-29 xenograft, spleen | 168 h post injection |  | tissue uptake | 1.1 %ID/g
CC(C(=O)O)n1nc(Cn2cc3cc(OCC[18F])c(Cl)cc3n2)c2ccccc2c1=O (racemic) |  | Sprague-Dawley rat male, pancreas | 120 min |  | tissue uptake | 0.04 ± 0.03 %ID/g
N#C[C@@H]1CC(F)(F)CN1C(=O)CNC(=O)c1ccnc2c(NC(=O)CCOCCOCCOCCOCCOCCOCCNC(=O)[C@H](CCCCNC(=O)CN3CCN(CC(=O)[O-])CCN(CC(=O)[O-])CCN(CC(=O)[O-])CC3)NC(=O)CCCc3ccc(I)cc3)cccc12.[177Lu+3] |  | mouse, U-87 MG tumour xenograft, spleen | 4 h |  | tissue uptake | 0.66 ± 0.17 %ID/g
COc1cccc(OC)c1-c1cc(C(=O)NC2(C(=O)O)C3CC4CC(C3)CC2C4)nn1-c1ccc(C(=O)N(C)CCCN(C)C(=O)[C@H](CCCCNC(=O)[C@H](CC(C)C)NC(=O)C2OC2C(=O)O)NC(=O)CN2CCN(CC(=O)[O-])CCN(CC(=O)[O-])CCN(CC(=O)[O-])CC2)cc1C(C)C.[177Lu+3] (mixture of isomers) |  | mouse, HT-29 xenograft, kidney | 72 h post injection |  | tissue uptake | 3.1 %ID/g
COc1ccc(Nc2nc(Nc3ccc(OCCOCC[18F])cc3)ncc2Br)cc1 |  | ICR mice, S180 tumour, muscle | intravenous, 30 min, added: PF-562271 33 mg/kg oral 1 h before |  | tissue uptake | 2.64 ± 0.13 %ID/g
N#C[C@@H]1CC(F)(F)CN1C(=O)CNC(=O)c1ccnc2c(NC(=O)[C@@H](N)CCCCNC(=O)CCOCCOCCOCCOCCOCCOCCNC(=O)CN3CCN(CC(=O)[O-])CCN(CC(=O)[O-])CCN(CC(=O)[O-])CC3)cccc12.[177Lu+3] |  | mouse, U-87 MG tumour xenograft, spleen | 4 h |  | tissue uptake | 0.14 ± 0.01 %ID/g
O=C(NCC1OC2CCC=CCCC2O1)c1ccc([18F])nc1 (centres unmarked) |  | healthy female BALB/c nude mice, lungs | intravenous, 7.4 MBq per mouse, 2 min |  | tissue uptake | 5.4 ± 0.6 %ID/g
CCCC[C@H](NC(=O)CCCCCCCNC(=O)CN1CCN(CC(=O)O)CCN(CC(=O)O)CC1)C(=O)N[C@H]1CC(=O)NCCCC[C@@H](C(N)=O)NC(=O)[C@H](Cc2c[nH]c3ccccc23)NC(=O)[C@H](CCCNC(=N)N)NC(=O)[C@@H](Cc2ccccc2)NC(=O)[C@H](Cc2c[nH]cn2)NC1=O [fluorine-18 labelled] |  | C57 mice, B16/F10 melanoma, kidneys | intravenous, 1 h, added: NDP-MSH 10 µg |  | tissue uptake | 6.67 ± 1.16 %ID/g
CCOC(=O)CNC(=O)CN1CCN(CC(=O)NCC(=O)OCC)CCN(CC(=O)NCC(=O)OCC)CCN(CC(=O)NCC(=O)OCC)CC1.[177Lu+3] |  | Sprague-Dawley rat, muscle | intravenous (tail vein), dose not given, 2 h |  | tissue uptake | 0.014 ± 0.004 % injected dose/g
O=C(NCC1OC2CCC=CCCC2O1)c1ccc(COCCOCCOCC[18F])cc1 (centres unmarked) |  | healthy female BALB/c nude mice, muscle | intravenous, 7.4 MBq per mouse, 60 min |  | tissue uptake | 1.9 ± 0.5 %ID/g
